Measurements gathered from unrelated publications.
Lines come from different studies, so protocols differ. “And” joins repeats or separate records; there may be more than shown. ± marks the error that the study gave.
Neutral cholesterol ester hydrolase 1: Neutral cholesterol ester hydrolase 1 (Mus musculus, UniProt Q8BLF1)
Chain of UniProt Q8BLF1 (whole entry, looked up): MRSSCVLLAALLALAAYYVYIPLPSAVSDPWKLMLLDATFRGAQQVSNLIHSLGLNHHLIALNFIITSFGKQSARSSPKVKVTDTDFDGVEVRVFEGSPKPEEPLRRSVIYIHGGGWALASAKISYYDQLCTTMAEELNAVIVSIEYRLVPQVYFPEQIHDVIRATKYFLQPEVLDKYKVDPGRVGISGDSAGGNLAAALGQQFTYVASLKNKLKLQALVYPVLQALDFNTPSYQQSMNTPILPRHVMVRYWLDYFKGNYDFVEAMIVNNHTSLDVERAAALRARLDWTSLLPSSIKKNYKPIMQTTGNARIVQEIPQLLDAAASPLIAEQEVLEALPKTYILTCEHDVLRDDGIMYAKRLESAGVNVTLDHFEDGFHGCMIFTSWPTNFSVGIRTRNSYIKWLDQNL
GALR2: Galanin receptor type 2 (GALR2, Homo sapiens, UniProt O43603)
Chain of UniProt O43603 (whole entry, looked up): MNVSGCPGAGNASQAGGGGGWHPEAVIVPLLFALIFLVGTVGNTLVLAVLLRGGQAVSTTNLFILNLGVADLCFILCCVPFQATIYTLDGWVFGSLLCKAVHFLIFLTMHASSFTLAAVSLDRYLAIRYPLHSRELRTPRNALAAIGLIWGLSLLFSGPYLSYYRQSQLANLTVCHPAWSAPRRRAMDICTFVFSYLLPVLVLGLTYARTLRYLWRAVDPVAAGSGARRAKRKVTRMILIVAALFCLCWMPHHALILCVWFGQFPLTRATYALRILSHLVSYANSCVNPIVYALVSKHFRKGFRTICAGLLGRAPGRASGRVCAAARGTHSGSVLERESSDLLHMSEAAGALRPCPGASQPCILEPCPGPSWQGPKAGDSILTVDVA
PARP2: Poly [ADP-ribose] polymerase 2 (PARP2, Homo sapiens, UniProt Q9UGN5)
Chain of UniProt Q9UGN5 (whole entry, looked up): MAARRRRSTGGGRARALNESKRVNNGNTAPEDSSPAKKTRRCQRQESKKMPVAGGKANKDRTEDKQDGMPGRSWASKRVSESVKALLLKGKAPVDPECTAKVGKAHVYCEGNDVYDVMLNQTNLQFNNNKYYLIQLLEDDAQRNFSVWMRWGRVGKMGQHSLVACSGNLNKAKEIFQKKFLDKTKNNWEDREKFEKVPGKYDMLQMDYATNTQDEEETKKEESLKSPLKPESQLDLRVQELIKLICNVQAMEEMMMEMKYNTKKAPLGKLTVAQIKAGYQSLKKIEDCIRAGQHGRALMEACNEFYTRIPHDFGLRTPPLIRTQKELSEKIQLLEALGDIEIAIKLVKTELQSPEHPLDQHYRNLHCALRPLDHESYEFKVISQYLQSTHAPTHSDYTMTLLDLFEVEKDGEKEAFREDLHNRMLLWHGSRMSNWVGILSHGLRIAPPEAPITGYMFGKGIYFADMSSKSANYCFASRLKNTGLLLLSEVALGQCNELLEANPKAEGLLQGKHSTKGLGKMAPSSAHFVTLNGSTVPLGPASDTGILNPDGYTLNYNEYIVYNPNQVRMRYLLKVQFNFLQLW
HDAC3: Histone deacetylase 3 (HDAC3, Homo sapiens, UniProt O15379)
Chain of UniProt O15379 (whole entry, looked up): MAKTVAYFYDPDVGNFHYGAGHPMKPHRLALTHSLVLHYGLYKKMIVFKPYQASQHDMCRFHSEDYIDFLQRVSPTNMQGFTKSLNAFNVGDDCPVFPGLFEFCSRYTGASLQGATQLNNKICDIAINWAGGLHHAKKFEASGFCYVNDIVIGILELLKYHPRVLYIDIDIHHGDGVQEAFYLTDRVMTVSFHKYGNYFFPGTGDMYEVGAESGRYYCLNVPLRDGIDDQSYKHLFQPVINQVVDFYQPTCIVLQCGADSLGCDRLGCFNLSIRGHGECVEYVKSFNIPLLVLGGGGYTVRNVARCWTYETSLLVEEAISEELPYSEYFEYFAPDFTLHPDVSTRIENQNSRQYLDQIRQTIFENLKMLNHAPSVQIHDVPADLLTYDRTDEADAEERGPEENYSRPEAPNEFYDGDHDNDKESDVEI
PLAT: Tissue-type plasminogen activator (PLAT, Homo sapiens, UniProt P00750)
Chain of UniProt P00750 (whole entry, looked up): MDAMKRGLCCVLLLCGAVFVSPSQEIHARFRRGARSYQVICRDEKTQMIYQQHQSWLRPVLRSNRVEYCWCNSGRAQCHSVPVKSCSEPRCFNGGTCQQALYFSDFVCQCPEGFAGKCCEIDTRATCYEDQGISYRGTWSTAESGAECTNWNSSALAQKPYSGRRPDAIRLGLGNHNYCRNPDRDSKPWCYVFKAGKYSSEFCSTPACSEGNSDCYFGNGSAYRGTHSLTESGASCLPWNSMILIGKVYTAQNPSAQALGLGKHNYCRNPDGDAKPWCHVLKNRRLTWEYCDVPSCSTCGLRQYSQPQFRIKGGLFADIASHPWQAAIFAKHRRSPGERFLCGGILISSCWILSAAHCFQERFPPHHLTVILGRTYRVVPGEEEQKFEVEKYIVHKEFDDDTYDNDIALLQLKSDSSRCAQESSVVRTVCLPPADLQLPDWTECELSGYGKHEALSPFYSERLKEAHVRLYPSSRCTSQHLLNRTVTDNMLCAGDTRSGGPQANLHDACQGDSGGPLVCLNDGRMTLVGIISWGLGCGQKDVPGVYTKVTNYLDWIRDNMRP
Breakpoint cluster region protein GAP domain: Breakpoint cluster region protein, GAP domain (Homo sapiens, UniProt P11274)
Chain of UniProt P11274 (whole entry, looked up): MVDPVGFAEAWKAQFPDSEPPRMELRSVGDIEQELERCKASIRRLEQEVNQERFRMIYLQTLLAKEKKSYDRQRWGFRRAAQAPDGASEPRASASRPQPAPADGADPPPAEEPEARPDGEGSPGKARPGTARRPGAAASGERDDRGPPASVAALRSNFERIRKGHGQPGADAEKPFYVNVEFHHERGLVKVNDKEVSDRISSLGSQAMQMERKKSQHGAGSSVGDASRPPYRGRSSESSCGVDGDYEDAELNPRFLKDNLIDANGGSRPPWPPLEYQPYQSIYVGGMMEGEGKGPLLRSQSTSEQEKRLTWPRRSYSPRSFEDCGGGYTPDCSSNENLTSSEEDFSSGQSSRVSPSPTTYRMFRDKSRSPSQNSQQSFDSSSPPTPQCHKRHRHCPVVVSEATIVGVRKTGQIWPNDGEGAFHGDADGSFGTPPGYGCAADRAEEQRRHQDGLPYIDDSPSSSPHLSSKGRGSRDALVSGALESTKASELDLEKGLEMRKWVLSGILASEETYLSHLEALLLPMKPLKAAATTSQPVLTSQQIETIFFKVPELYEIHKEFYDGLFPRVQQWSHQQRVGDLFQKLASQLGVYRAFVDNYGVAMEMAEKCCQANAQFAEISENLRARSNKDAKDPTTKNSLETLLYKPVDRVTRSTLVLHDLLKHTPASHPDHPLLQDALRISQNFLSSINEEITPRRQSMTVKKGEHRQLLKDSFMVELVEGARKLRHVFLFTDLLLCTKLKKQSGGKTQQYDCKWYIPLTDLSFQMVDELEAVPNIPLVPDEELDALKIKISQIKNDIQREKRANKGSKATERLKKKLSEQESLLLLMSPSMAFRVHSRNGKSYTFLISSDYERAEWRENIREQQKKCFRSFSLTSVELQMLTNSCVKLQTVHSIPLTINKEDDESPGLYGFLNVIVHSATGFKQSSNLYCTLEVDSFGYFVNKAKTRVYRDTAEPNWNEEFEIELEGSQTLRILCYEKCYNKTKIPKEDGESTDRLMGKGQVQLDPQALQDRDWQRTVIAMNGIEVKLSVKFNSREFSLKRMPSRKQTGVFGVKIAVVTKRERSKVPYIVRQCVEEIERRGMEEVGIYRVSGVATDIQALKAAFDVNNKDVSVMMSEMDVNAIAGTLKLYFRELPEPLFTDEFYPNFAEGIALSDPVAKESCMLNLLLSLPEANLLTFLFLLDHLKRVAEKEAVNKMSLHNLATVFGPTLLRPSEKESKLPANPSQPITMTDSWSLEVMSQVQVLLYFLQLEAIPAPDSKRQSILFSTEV
DRD4: D(4) dopamine receptor (DRD4, Homo sapiens, UniProt P21917)
Chain of UniProt P21917 (whole entry, looked up): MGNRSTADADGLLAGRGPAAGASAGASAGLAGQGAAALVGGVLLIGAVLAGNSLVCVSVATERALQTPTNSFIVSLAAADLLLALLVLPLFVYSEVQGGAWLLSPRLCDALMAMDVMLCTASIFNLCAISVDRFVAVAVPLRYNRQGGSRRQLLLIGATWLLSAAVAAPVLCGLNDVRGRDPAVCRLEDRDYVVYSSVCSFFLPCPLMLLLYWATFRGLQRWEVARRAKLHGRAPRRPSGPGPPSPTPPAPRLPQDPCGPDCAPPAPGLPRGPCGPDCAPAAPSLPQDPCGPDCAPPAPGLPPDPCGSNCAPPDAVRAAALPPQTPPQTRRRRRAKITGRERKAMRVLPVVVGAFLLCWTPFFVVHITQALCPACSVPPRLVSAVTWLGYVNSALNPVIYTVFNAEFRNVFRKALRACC
ADORA2B: Adenosine receptor A2b (ADORA2B, Homo sapiens, UniProt P29275)
Chain of UniProt Q13148 (whole entry, looked up): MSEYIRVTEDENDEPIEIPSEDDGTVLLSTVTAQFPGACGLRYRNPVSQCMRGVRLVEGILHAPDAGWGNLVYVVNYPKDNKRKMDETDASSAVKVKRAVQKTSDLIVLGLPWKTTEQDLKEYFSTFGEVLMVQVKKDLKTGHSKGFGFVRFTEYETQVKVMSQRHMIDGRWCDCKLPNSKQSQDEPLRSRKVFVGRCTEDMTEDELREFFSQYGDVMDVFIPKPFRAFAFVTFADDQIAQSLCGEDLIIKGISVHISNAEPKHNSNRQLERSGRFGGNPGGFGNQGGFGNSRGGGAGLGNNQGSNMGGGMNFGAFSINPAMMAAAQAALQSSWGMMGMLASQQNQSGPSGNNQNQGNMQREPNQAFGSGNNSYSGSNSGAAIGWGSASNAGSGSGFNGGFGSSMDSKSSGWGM
Chain of UniProt P29275 (whole entry, looked up): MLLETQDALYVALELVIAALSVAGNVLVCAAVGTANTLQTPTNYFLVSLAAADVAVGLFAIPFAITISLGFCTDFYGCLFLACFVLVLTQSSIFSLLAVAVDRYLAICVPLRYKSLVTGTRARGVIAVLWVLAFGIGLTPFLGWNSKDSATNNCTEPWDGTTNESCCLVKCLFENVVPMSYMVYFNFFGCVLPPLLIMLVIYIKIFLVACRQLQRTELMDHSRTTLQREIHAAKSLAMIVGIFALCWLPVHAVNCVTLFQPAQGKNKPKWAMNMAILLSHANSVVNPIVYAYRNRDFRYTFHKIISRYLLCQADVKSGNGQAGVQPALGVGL
Chain of UniProt Q9NRW4 (whole entry, looked up): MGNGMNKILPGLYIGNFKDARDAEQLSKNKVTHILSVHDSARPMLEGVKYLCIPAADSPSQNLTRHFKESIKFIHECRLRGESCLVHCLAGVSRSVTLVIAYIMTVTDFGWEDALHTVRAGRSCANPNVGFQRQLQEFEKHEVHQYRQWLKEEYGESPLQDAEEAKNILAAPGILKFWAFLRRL

| SMILES | target | assay | system | conditions | scale | inhibition |
| --- | --- | --- | --- | --- | --- | --- |
| O=C(N1CCOCC1)n1ccnn1 | Neutral cholesterol ester hydrolase 1 | probe labeling, inhibitor, gel-based competitive ABPP | mouse T-cell proteome | 1 µM, 30 min, 37 °C |  | < 50% |
| CN1CC[C@@H](COc2cnc(C#N)cc2-c2ccn3nc(NC(=O)C4CC4)cc3c2)C1 | MAPK/MAK/MRK overlapping kinase (MOK, Homo sapiens, UniProt Q9UQ07) | enzyme activity, inhibitor |  | 1 µM |  | -1% |
| O=[N+]([O-])c1ccc(Cn2cc(Cn3cc(CO)nn3)nn2)cc1 | 1-phosphatidylinositol 4,5-bisphosphate phosphodiesterase delta-1, PH domain (Plcd1, Rattus norvegicus, UniProt P10688) | PI(4,5)P2 binding to PH domain, SPR |  | 200 µM |  | 93 ± 5% |
| CN1CCN(C(=O)n2ccnn2)CC1 | sn-1-specific diacylglycerol lipase ABHD11 (Mus musculus, UniProt Q8K4F5) | serine hydrolase activity, inhibitor, competitive gel-based ABPP | mouse T-cell proteome | 1 µM, 30 min, 37 °C |  | < 50% |
| O=C(Nc1ccc(C(F)F)cc1)[C@H](CC1CCCCC1)Nc1nn2c(=O)ccnc2s1 | Dual specificity protein phosphatase 22 (DUSP22, Homo sapiens, UniProt Q9NRW4) | enzyme activity, inhibitor |  | 10 µM |  | -2% |
| O=C(CCCc1ccc2c(c1)OCCO2)NCCNC(=O)Cn1c(=O)[nH]c(=O)c2ccccc21 | Poly [ADP-ribose] polymerase 1 (PARP1, Homo sapiens, UniProt P09874) | enzyme activity, inhibitor |  | 0.5 µM |  | 15% |
| CO[C@@H](C)c1c(NC(=O)Nc2cnc(-n3nccn3)c(C(F)(F)F)c2)cnc2sc(C)nc12 | GALR2 | ligand displacement, radioligand |  | 10 µM |  | -2% |
| O=C(CC1CC2CCC1C2)NCCNC(=O)Cn1c(=O)[nH]c(=O)c2ccccc21 (stereo not shown) | PARP2 | enzyme activity, inhibitor |  | 50 nM |  | 34% |
| Cc1c(COc2cc(OCc3cccc(C#N)c3)c(CN3CCCC[C@@H]3C(=O)O)cc2Cl)cccc1-c1cccc(OCc2ccc(C(=O)NO)cc2)c1 | HDAC3 | enzyme activity, inhibitor |  | 1 µM |  | 50.5% |
| CC(C)(C)CNC(=O)C[C@H](NC(=O)CCc1ccccc1)C(=O)N[C@@H](Cc1cccnc1)C(=O)NCc1ccccc1Cl | PLAT | enzyme activity, inhibitor |  | 100 µM |  | 17% |
| O=C(O)C1Nc2ccc(Cl)cc2C2C=CCC12 (stereo not shown) | Breakpoint cluster region protein GAP domain | GAP activity |  | 10 µM, selectivity counter screen |  | 54.7% |
| CCCCCCCCCCCCCCCC(=O)N[C@@H](CCCCN)C(=O)N[C@@H](CCCCN)C(=O)N[C@@H](CO)C(=O)N[C@@H](CCCNC(=N)N)C(=O)N[C@@H](C)C(=O)N[C@@H](CC(C)C)C(=O)N[C@@H](Cc1ccccc1)C(N)=O | Proteinase-activated receptor 1 (F2R, Homo sapiens, UniProt P25116) | platelet aggregation, ex vivo LTA | human | 0.3 mg/kg, 1 h, together with: SFLLRN 5 µM | relative to: baseline | 8% |
| Cc1cc(C(=O)NCCNC(=O)c2cccc(COc3ccccc3C(N)=O)c2)n[nH]1 | PARP2 | enzyme activity, inhibitor |  | 0.5 µM |  | 100% |
| C[Si]1(C[C@H](CN)CC(=O)O)CCCC1 | L-type calcium channel, rat | binding, radioligand binding |  | 70 µM, together with: [3H](-)-desmethoxyverapamil |  | 0% |
| C=CC(=O)Nc1cccc(-c2cnc3[nH]cc(C(=O)NC(C)(C)C)c3n2)c1 | Tyrosine-protein kinase Lyn, isoform B (LYN, Homo sapiens, UniProt P07948) | enzyme activity, inhibitor |  | 0.1 µM |  | 9% |
| COc1ccc(CN2CC(COc3nccs3)CC(F)(F)C2)cc1F (stereo not shown) | DRD4 | ligand displacement, radioligand |  | 10 µM |  | 8% |
| CCN(CC)C(=O)n1ccnn1 | Neutral cholesterol ester hydrolase 1 | probe labeling, inhibitor, gel-based competitive ABPP | mouse T-cell proteome | 1 µM, 30 min, 37 °C |  | < 50% |
| Cc1c(COc2cc(OCc3cccc(C#N)c3)c(CNCCO)cc2Cl)cccc1-c1cccc(OCc2ccc(C(=O)NO)cc2)c1 | HDAC3 | enzyme activity, inhibitor |  | 1 µM |  | 39.4% |
| CN(Cc1ccc(/C=C/C(=O)NO)cc1)CC12CC3CC(CC(C3)C1)C2 | human EP4 receptor | agonist radioligand binding |  | 0.05 µM |  | 3% |
| COc1ncc2nc(C)n(Cc3ncc(S(N)(=O)=O)cc3F)c2c1-c1ccccc1 | Cannabinoid receptor 1 (CNR1, Homo sapiens, UniProt P21554) | antagonist, cell-based |  | 10 µM |  | -0.807% |
| CC(C)Cn1c(SCC(=O)N2CCc3ccccc3C2)nc2cc(Cl)ccc2c1=O | 5-hydroxytryptamine receptor 6 (HTR6, Homo sapiens, UniProt P50406) | ligand displacement, radioligand |  | 10 µM |  | 2% |
| Cc1ccc(CNC(=O)[C@H](CCc2ccccc2)NC(=O)[C@H](CC(=O)NCC(C)(C)C)NC(=O)CCc2cccc(F)c2)cc1 | PLAT | enzyme activity, inhibitor |  | 100 µM |  | 13% |
| CCC(=O)N(C)c1ccc(Cl)c(Cl)c1 | GALR2 | ligand displacement, radioligand |  | 10 µM |  | < 10% |
| O=C1c2sc(-c3ccc(N4CCC(F)C4)nc3F)nc2CCN1c1cccnc1 (stereo not shown) | TAR DNA-binding protein 43, aggregated (TARDBP, Homo sapiens, UniProt Q13148) | radioligand binding | homogenate, FTLD-TDP, type A | 62.5 nM, together with: [3H]ACI-19626 |  | 16.5% and 32.3% |
| O=C(N1CCCC1)n1ccnn1 | Neutral cholesterol ester hydrolase 1 | probe labeling, inhibitor, gel-based competitive ABPP | mouse T-cell proteome | 1 µM, 30 min, 37 °C |  | < 50% |

| SMILES | target | assay | system | conditions | scale | inhibition |
| --- | --- | --- | --- | --- | --- | --- |
| Cc1c(COc2cc(OCc3cccc(C#N)c3)c(CNC(CO)(CO)CO)cc2Cl)cccc1-c1cccc(OCCCCCC(=O)NO)c1 | HDAC3 | enzyme activity, inhibitor |  | 1 µM |  | 92.2% |
| CN(C)C(=O)n1ccnn1 | Platelet-activating factor acetylhydrolase 2, cytoplasmic (Mus musculus, UniProt Q8VDG7) | serine hydrolase activity, inhibitor, competitive gel-based ABPP | mouse T-cell proteome | 1 µM, 30 min, 37 °C |  | < 50% |
| c1ccc(OC[C@H]2CN(CCN3CCc4ccccc43)CCO2)nc1 | DRD4 | radioligand binding |  | concentration not given, together with: [3H]N-methylspiperone |  | 72.4% |
| CCOC(=O)C12CC1C(n1cnc3c(NC)nc(C#Cc4ccc(Br)s4)nc31)C(O)C2O (stereo not shown) | Sodium-dependent serotonin transporter (SLC6A4, Homo sapiens, UniProt P31645) | ligand displacement, radioligand |  | 10 µM |  | 9% |
| C[C@@H]1CN(Cc2ccccc2)[C@H]2C[C@@H]1CC(=O)[C@@H]2C | Kappa-type opioid receptor (OPRK1, Cavia porcellus, UniProt P41144) | binding, radioligand binding | guinea pig brain | 1 µM, together with: [3H]U-69,593 |  | 0% |
| COc1ccc(CN2CC(COc3ccc(C)c(F)c3)CC(F)(F)C2)cc1F (stereo not shown) | DRD4 | binding, radioligand binding |  | 10 µM, outcome inactive, together with: [3H]N-methylspiperone |  | inactive |
| O=C1c2sc(-c3ccc(N4CCC(CO)CC4)nc3F)nc2CCN1c1cccnc1 | ADORA2B | ligand displacement, radioligand |  | 1 µM |  | -7% |
| Cc1c(OS(=O)(=O)Oc2ccc3ccccc3c2)cccc1C(=O)NO | Histone deacetylase 8 (HDAC8, Homo sapiens, UniProt Q9BY41) | enzyme activity, inhibitor, fluorescence |  | 10 µM |  | 48% |
| C=CC(=O)N1Cc2nc(-c3cc(-c4cc(Cl)cnc4Cl)c(F)cc3F)n(-c3ccncn3)c2C1 | Sphingosine kinase 1 (SPHK1, Homo sapiens, UniProt Q9NYA1) | cell-free assay, inhibitor |  | 1 µM |  | -5.8% |
| Cn1sc(Nc2c(Cl)ccc3ncccc23)c(C#N)c1=O | PARP2 | enzyme activity, inhibitor |  | 10 µM |  | 4% |
| CC(=O)c1ccc2c3c(cccc13)NC(C)=N2 | Breakpoint cluster region protein GAP domain | GAP activity |  | 10 µM, selectivity counter screen |  | 9.74% |
| O=C1CO[C@H](CNC(=O)C2(c3ccc(Cl)cc3)CC2)CN1C1Cc2ccccc2C1 | C-X-C chemokine receptor type 2 (CXCR2, Homo sapiens, UniProt P25025) | β-arrestin recruitment, antagonist |  | 1 µM |  | 0% |
| CC(=O)NCCNCc1cc(Cl)c(OCc2cccc(-c3cccc(OCc4ccc(C(=O)NO)cc4)c3)c2C)cc1OCc1cccc(C#N)c1 | HDAC3 | enzyme activity, inhibitor |  | 1 µM |  | 35.2% |
| CCCCCCC#Cc1cncc(-c2nnc(SCc3ccc([N+](=O)[O-])o3)n2C)c1 | mraY (Staphylococcus aureus, UniProt Q2FZ93) | cell-free assay, inhibitor |  | 250 µM |  | 67% |
| C[Si](C)(C)C[C@H](CN)CC(=O)O | Beta-1 adrenergic receptor (ADRB1, Homo sapiens, UniProt P08588) | cell-free assay, inhibitor |  | 250 µM |  | -13% |
| CCCCCCCCCCCCCCN(O)C(=O)CCCCC[C@@H]1NC(=O)[C@H]([C@@H](C)CC)NC(=O)[C@H](Cc2ccccc2C(F)(F)F)NC(=O)CCSCc2cccc(n2)CSCCCNC1=O | HDAC3 | enzyme activity, inhibitor, fluorogenic |  | 30 µM |  | 45% |
| CN(C(=O)n1ccnn1)c1ccccc1 | Neutral cholesterol ester hydrolase 1 | probe labeling, inhibitor, gel-based competitive ABPP | mouse T-cell proteome | 1 µM, 30 min, 37 °C |  | < 50% |
| CCOC(=O)C1(C)C(Br)=C(Cl)C(=O)N1c1ccc(F)cc1 (stereo not shown) | Breakpoint cluster region protein GAP domain | GAP activity |  | 10 µM, selectivity counter screen |  | -24% |
| CNC(=O)C[C@H](Cc1ccc(C#N)cc1)NC(=O)c1cc(-c2ccc(CN[C@H](C)c3ccc(C)cc3)o2)ccc1Cl | ADORA2B | agonist response, antagonist | human cells | 10 µM, A2B antagonist |  | 8% |
| C/C=C/C(=O)Nc1ccc2nc(NCCCCCN(C)C)nc(NCCCCCCN(C)C)c2c1 | DNA (cytosine-5)-methyltransferase 1 (DNMT1, Homo sapiens, UniProt P26358) | enzyme activity, inhibitor, radiometric |  | 50 µM |  | 1% |
| Cc1ccc(C(C2=C(O)CC(C)(C)CC2=O)C2=C(O)CC(C)(C)CC2=O)o1 | Breakpoint cluster region protein GAP domain | GAP activity |  | 10 µM, selectivity counter screen |  | -8.01% |
| O=C(N(c1ccccc1)c1ccccc1)n1ccnn1 | Neutral cholesterol ester hydrolase 1 | probe labeling, inhibitor, gel-based competitive ABPP | mouse T-cell proteome | 1 µM, 30 min, 37 °C |  | > 95% |
| CC(=O)NCCNCc1cc(Cl)c(OCc2cccc(-c3cccc(OCCCCCC(=O)NO)c3)c2C)cc1OCc1cccc(C#N)c1 | HDAC3 | enzyme activity, inhibitor |  | 1 µM |  | 84.8% |
| CCn1cc(-c2cccc(C(F)(F)F)c2)c2sc(C(=N)NC3CCS(=O)(=O)CC3)cc2c1=O | Bromodomain-containing protein 7 (BRD7, Homo sapiens, UniProt Q9NPI1) |  |  | 1 µM |  | 96.3% |

Some of these lines once more:
| SMILES | target | assay | system | conditions | scale | inhibition |
| --- | --- | --- | --- | --- | --- | --- |
| Cc1c(COc2cc(OCc3cccc(C#N)c3)c(CNC(CO)(CO)CO)cc2Cl)cccc1-c1cccc(OCCCCCC(=O)NO)c1 | HDAC3 | enzyme activity, inhibitor |  | 1 µM |  | 92.2% |
| C[C@@H]1CN(Cc2ccccc2)[C@H]2C[C@@H]1CC(=O)[C@@H]2C | Kappa-type opioid receptor (OPRK1, Cavia porcellus, UniProt P41144) | binding, radioligand binding | guinea pig brain | 1 µM, together with: [3H]U-69,593 |  | 0% |
| O=[N+]([O-])c1ccc(Cn2cc(Cn3cc(CO)nn3)nn2)cc1 | 1-phosphatidylinositol 4,5-bisphosphate phosphodiesterase delta-1, PH domain (Plcd1, Rattus norvegicus, UniProt P10688) | PI(4,5)P2 binding to PH domain, SPR |  | 200 µM |  | 93 ± 5% |
| CCN(CC)C(=O)n1ccnn1 | Neutral cholesterol ester hydrolase 1 | probe labeling, inhibitor, gel-based competitive ABPP | mouse T-cell proteome | 1 µM, 30 min, 37 °C |  | < 50% |
